Measured values of several laboratories.
Lines come from different studies, so protocols differ. Numbers after ± are the reported error.

`CC(C)[C@H](C(=O)Nc1ccc(C(=O)NO)cc1)c1ccccc1` gave an accuracy of 105% (whole blood; 1000 ng/mL, 5 h, 4 °C, stability on ice).
Under “reticulocyte count change”, `CCc1cc(C(=O)NC)c2nccc(N3CCc4c(cc(Cn5ccnc5)cc4-c4cn(C)nc4C(F)(F)F)C3=O)c2c1` is recorded as -17.4% (Sprague Dawley rats; oral, 100 mg/kg once daily, 7 days; baseline: vehicle).
With `OCC1=C[C@@H](O)[C@@H]2C=CO[C@@H](O[C@@H]3O[C@H](CO)[C@@H](O)[C@H](O)[C@H]3O)[C@H]12` the accuracy was 96.6% (three freeze-thaw cycles; rat plasma; 200 ng/mL, -70 °C freeze).
`FC(F)(F)c1ccc(CNc2ccc(Cc3c[nH]c4ncc(Cl)cc34)cn2)cn1` — result for “cognitive disorder incidence”: 0% (patients with advanced solid tumours; oral, 1000 mg/day, non-TGCT cohort, all grades).
For `NC(=O)c1cc(Oc2ccc(NC(=O)Nc3ccc(Cl)c(C(F)(F)F)c3)c(F)c2)cc[n+]1[O-]`, the autosampler stability was < 15% (reconstituted solution; up to 24 h, 4 °C; baseline: initial concentration).
The Vss/F of `CCN1CCN(Cc2ccc(Nc3ncc(F)c(-c4cc(F)c5nc(C)n(C(C)C)c5c4)n3)nc2)CC1` is reported as 1830 L (healthy human, fasted, plasma; oral, 200 mg, 2 x 100 mg capsules).
`O=C(O)CN1Cc2cccc(n2)CN(CC(=O)O)Cc2cccc(n2)C1`: “Mn(II)/Mn(III) half-wave potential” 0.772 V (differential pulse voltammetry; baseline: Ag/AgCl).
`c1ccc2c(c1)-c1cccc3c1c-2cc1ccccc13`: “literature range of log K” 4.77 to 5.64 log units (PDMS-water partitioning; PAH compilation).
Under “amount excreted in urine (0-48 h)”, `CN[C@@H]1COc2c(S(=O)(=O)NC(=O)Nc3c4c(cc5c3CCC5)CCC4)cnn2C1` is recorded as 24.3 mg (human, urine; oral, 150 mg, 0-48 h).
The accuracy of `CN1CC(=O)N2[C@H](c3ccc4c(c3)OCO4)c3[nH]c4ccccc4c3C[C@@H]2C1=O` is reported as 99.2% (human plasma; 400 ng/mL, 74 days, long-term storage -20 °C).
For `CN(C(=O)n1cnc(-c2cccnc2)c1)C1CCCCC1`, the concentration was 7.8 ± 0.2 ng/g (Wistar rat, pons; oral, 10 mg/kg/day of BIA 10-2474, 24 h, repeated 5 days).
For `CNC(=O)c1ccc(-c2cnc3ncc(Cc4ccc5ncccc5c4)n3n2)cc1F`, “abdominal pain incidence” read 18% (cancer patients; oral, dose not given, all grades dose escalation).
`O=C(O)CCC(=O)O.[2H]C([2H])([2H])Oc1cc(C)c2[nH]ccc2c1CN1CC[C@@H](C2CC2)C[C@H]1c1ccc(C(=O)O)cc1` gave a Vss/F of 125 L (human, plasma; 300 mg once daily, day 10, multiple ascending dose).
For `CCn1cc(C(=O)N2CCOCC2)c(=O)c2cc(NC3Cc4ccccc4C3)cnc21`, the Tmax was 2.25 h (human overall, fed, plasma; oral, 900 mg twice daily, day 1, tablet, median).
`COc1ccc2nc([S@@+]([O-])Cc3ncc(C)c(OC)c3C)[nH]c2c1` has an AUC of 715 ng·h/mL (human, dried blood spots; oral, 10 mg omeprazole, together with: voriconazole).
Under “granulocyte count change”, `Cn1cc(Nc2nccc(-c3ccc4c(c3)CN(C3COC3)CC[C@H]4NC(=O)c3cn(C(C)(C)C)nn3)n2)cn1` is recorded as -16.7% (human, whole blood; 50 mg twice daily, day 14; baseline: pre-dose baseline).
`Cn1cncc1[C@@](N)(c1ccc(Cl)cc1)c1ccc2c(c1)c(-c1cccc(Cl)c1)cc(=O)n2C` has a radioactivity excreted of ~80% (healthy male humans, faeces; oral, 50 mg, [14C]-labelled; baseline: dose).
`CC(C)(CO[P@@](=O)(O)O[P@@](=O)(O)OC[C@H]1O[C@@H](n2cnc3c(N)ncnc32)[C@H](O)[C@@H]1OP(=O)(O)O)[C@@H](O)C(=O)NCCC(=O)NCCSC(=O)CC(=O)O`: “log2 fold change” -0.165 (binding, MIDAS equilibrium dialysis LC-MS; A2AR-BRIL thermostabilized; concentration not given; baseline: no-protein control).
`O=C(O)c1cccc(C(=O)O)c1`: “apparent dissolution enthalpy” 5.84 kcal/mol (betaine/ethylene glycol DES-water; DES mass fraction 0.80).
`COC(=O)C1=CO[C@@H](O[C@@H]2O[C@H](CO)[C@@H](O)[C@H](O)[C@H]2O)[C@@H]2C(CO)=CC[C@H]12` gave an accuracy of 89.9% (rat plasma; 8 ng/mL, 2 weeks, -70 °C, post-preparative stability).
For `Cc1coc([C@H]2C[C@H]3[C@@H](CF)SC(N)=N[C@@]3(c3ccc(F)cc3F)CO2)n1`, the brain concentration was 2800 nM (male 129/SVE mouse, brain; subcutaneous, 80 mg/kg, 3 h).
For `CC(C)(C)c1ccc(O)c(CN(Cc2cc(C(C)(C)C)ccc2O)C2CCC(NC(N)=O)CC2)c1` (centres unmarked), the dose-normalised Cmax was 102 ng/mL per mg/kg (C57BL/6 mouse, male, plasma; oral, 10 mg/kg).
`CCC(=O)N(CCC(c1ccc2c(c1)OCO2)c1ccccc1OC)Cc1ccccc1` (centres unmarked) has a GLOB of 1.73 g/dL (female athymic nude mouse, blood; i.p., 60 mg/kg twice daily, 14 days, group mean).
`CC(C)(Sc1ccncc1-c1ccc(C#N)c2ccccc12)C(=O)O` — result for “amount excreted in urine (0-24 h)”: 87.2 µg (human, urine; oral, 5 mg, together with: febuxostat 0 mg).
Under “renal clearance (0-24 h)”, `COc1cc(C(=O)NC2CCN(C)CC2)c(F)cc1Nc1ncc(C(F)(F)F)c(Oc2cccc3c2C(=O)N(C)C3)n1` is recorded as 13.4 mL/min (human patients, urine and plasma; oral, 100 mg single dose, geometric mean).
`CCCCOC(=O)N1CCN(C(=O)[C@H](CP(=O)(O)O)NC(=O)c2cc(N3CC[C@H](OC)C3)nc(-c3ccccc3)n2)CC1`: “change from baseline” -0.24 ± 1.19 mmol/L (item: Urea; human, blood; 8 mg, 24 h).
For `O=C(Nc1cnccc1Cl)N1CCN(Cc2ccc3c(c2)OC(F)(F)O3)CC1`, “abdominal pain incidence” read 0% (multiple ascending dose; young men; 25 mg, treatment-emergent adverse events).
`COc1cc(Nc2ncc3c(n2)-c2ccc(Cl)cc2C(c2c(F)cccc2OC)=NC3)ccc1C(=O)O` — result for “patients with lung infection”: 4% (cancer patients; oral, dose not given, all grades any attribution, together with: pembrolizumab).
`O=C(Nc1nc2cccc(-c3ccc(CN4CCS(=O)(=O)CC4)cc3)n2n1)C1CC1`: “treatment-emergent adverse events” 0% (item: first degree atrioventricular block; human rheumatoid arthritis patients; oral, 200 mg once daily, 4 weeks, regardless of relatedness).
The Cmax of `C=CCn1c(=O)c2cnc(Nc3ccc(N4CCN(C)CC4)cc3)nc2n1-c1cccc(C(C)(C)O)n1` is reported as 1060 nM (human; oral, 250 mg once daily, monotherapy lead-in, -5 days; geometric mean).
For `C=CCN1CC(=O)N2[C@@H](Cc3ccc(O)cc3F)C(=O)N(Cc3cccc(N4CC(N5CCN(CC)CC5)C4)n3)C[C@@H]2N1C(=O)NCc1ccccc1`, the treatment-related diarrhoea was 0% (advanced solid tumour patients; oral, 15 mg twice daily, grade ≥3, dose-escalation).
`Cc1c(C(=O)Nc2ccc(N3C[C@@H](C)O[C@@H](C)C3)nc2)cccc1-c1ccc(OC(F)(F)F)cc1` — result for “plasma-to-tumour rate constant”: 0.0076 h⁻¹ (PK model; mouse; oral, 40 mg/kg/day).
With `O=C(O)CCCOc1ccc([18F])cc1-c1cc(-c2ccccc2C(F)(F)F)n(-c2ccccc2)n1` the radioactivity uptake was 0.24 ± 0.01 SUV (gamma counting; male ddY mice, brain; intravenous, 2.1 MBq, 30 min).
For `C/C=C/C(=O)SCCNC(=O)CCNC(=O)[C@H](O)C(C)(C)COP(=O)(O)OP(=O)(O)OC[C@H]1O[C@@H](n2cnc3c(N)ncnc32)[C@H](O)[C@@H]1OP(=O)(O)O`, “log2 fold change” read -0.888 (binding, MIDAS equilibrium dialysis LC-MS; A2AR-BRIL thermostabilized; concentration not given; baseline: no-protein control).
With `CN(C(=O)n1cnc(-c2ccc[n+]([O-])c2)c1)[C@H]1CC[C@H](O)CC1` the Tmax was 2 h (cynomolgus monkeys, plasma; oral, 1.0 mg/kg).
Under “mean arterial pressure change”, `CNCCOC12CC3(C)CC(C)(CC(Cn4ncc(-c5ccc(N6CCc7cccc(C(=O)Nc8nc9ccccc9s8)c7C6)nc5C(=O)O)c4C)(C3)C1)C2` is recorded as -3% (beagle dog, male, anaesthetised; intravenous bolus, 0.03 mg/kg, 120 min; baseline: baseline).
With `N#Cc1ccc2c(c1)[C@H]1CCCN(C(=O)c3ccc4[nH]cnc4c3)[C@H]1C2` the DHEA-S level was 6.7 µmol/L (human, female; 360 mg, day 7).
For `NC1(C(=O)N[C@@H](CCO)c2ccc(Cl)cc2)CCN(c2nc[nH]c3nccc2-3)CC1`, “incidence of Erythema” read 0% (metastatic CRPC patients; 320 mg b.i.d., grade 3 to 4, treatment-related, together with: enzalutamide 160 mg daily).
The PQ interval of `COc1ccc2c(c1)CN(C(=O)CCN1CCC(Cc3ccccc3)CC1)CC[S@@+]2[O-]` is reported as 72 ± 12 ms (telemetry; conscious male beagle dogs; intravenous, 8 mg/kg, 0.5 h).
Under “systemic vascular resistance change”, `Cc1c(-c2ccc(N3CCc4cccc(C(=O)Nc5nc6ccccc6s5)c4C3)nc2C(=O)O)cnn1CC12CC3(C)CC(C)(C1)CC(OCCNCC[C@H](O)CO)(C3)C2` is recorded as -14% (anaesthetised male beagle dogs; intravenous infusion, 0.3 mg/kg/min, 75 min; baseline: vehicle).
For `Cc1ccc([C@@H]2O[C@H](CO)[C@@H](O)[C@H](O)[C@H]2O)cc1Cc1ccc(-c2ccc(F)cc2)s1`, “urinary calcium excretion change” read -27.5 mg (Japanese type 2 diabetes patients; 400 mg, day 5, 24 h urine collection; baseline: baseline).

Excerpt of the above:
`Cn1cncc1[C@@](N)(c1ccc(Cl)cc1)c1ccc2c(c1)c(-c1cccc(Cl)c1)cc(=O)n2C` has a radioactivity excreted of ~80% (healthy male humans, faeces; oral, 50 mg, [14C]-labelled; baseline: dose).
`CC(C)(CO[P@@](=O)(O)O[P@@](=O)(O)OC[C@H]1O[C@@H](n2cnc3c(N)ncnc32)[C@H](O)[C@@H]1OP(=O)(O)O)[C@@H](O)C(=O)NCCC(=O)NCCSC(=O)CC(=O)O`: “log2 fold change” -0.165 (binding, MIDAS equilibrium dialysis LC-MS; A2AR-BRIL thermostabilized; concentration not given; baseline: no-protein control).
